Measurements gathered from unrelated publications.
Each line is one published result; not all experiments were run side by side.
Organism: Staphylococcus aureus

SMILES = Nc1cccc2c(=O)[nH]c(=O)oc12; system = ATCC 29213; conditions = 50 µg/mL; MIC = inactive
SMILES = CC(C)C[C@H](NC(=O)[C@H](C)NC(=O)CNC(=O)[C@@H](NC(=O)[C@@H](NC(=O)[C@H](CCCCN)NC(=O)[C@H](CCCCN)NC(=O)[C@@H](NC(=O)[C@H](CC(C)C)NC(=O)[C@H](CCCCN)NC(=O)[C@H](CC(C)C)NC(=O)[C@H](CC(C)C)NC(=O)[C@@H](N)CCCCN)C(C)C)C(C)C)C(C)C)C(=O)NCC(N)=O; system = SH1000 GFP-expressing, nutrient broth; conditions = 20 h, 37 °C; MIC = 33 µM
SMILES = CC[C@H](C)[C@H](NC(=O)[C@H](CCCNC(=N)N)NC(=O)[C@@H]1CCCN1C(=O)[C@@H]1CCCN1C(=O)[C@H](CC(C)C)NC(=O)[C@H](CCCNC(=N)N)NC(=O)[C@@H]1CCCN1C(=O)[C@@H]1CCCN1C(=O)[C@H](Cc1ccccc1)NC(=O)[C@H](Cc1ccccc1)NC(=O)[C@@H]1CCCN1C(=O)[C@@H]1CCCN1C(=O)[C@@H]1CCCN1C(=O)[C@H](CCCNC(=N)N)NC(=O)[C@@H]1CCCN1C(=O)[C@H](CCCNC(=N)N)NC(=O)[C@@H]1CCCN1C(=O)[C@H](CC(C)C)NC(=O)[C@H](Cc1ccc(O)cc1)NC(=O)[C@@H]1CCCN1C(=O)[C@@H]1CCCN1C(=O)[C@H](CCCNC(=N)N)NC(=O)[C@@H]1CCCN1C(=O)[C@H](CCCNC(=N)N)NC(=O)[C@H](CCCNC(=N)N)NC(=O)[C@@H](N)CCCNC(=N)N)C(=O)N1CCC[C@H]1C(=O)N1CCC[C@H]1C(=O)NCC(=O)N[C@@H](Cc1ccccc1)C(=O)N1CCC[C@H]1C(=O)N1CCC[C@H]1C(=O)N[C@@H](CCCNC(=N)N)C(=O)N[C@@H](Cc1ccccc1)C(=O)N1CCC[C@H]1C(=O)N1CCC[C@H]1C(=O)N[C@@H](CCCNC(=N)N)C(=O)N[C@@H](Cc1ccccc1)C(=O)N1CCC[C@H]1C(N)=O; assay = broth microdilution; system = USA300 JE2 wild type; conditions = 18 to 20 h; MIC = 4 µg/mL
SMILES = CC[C@H](C)[C@H](NC(=O)[C@H](C)NC(=O)[C@H](CCC(=O)O)NC(=O)[C@H](Cc1c[nH]cn1)NC(=O)[C@H](CC(C)C)NC(=O)CNC(=O)[C@H](CCC(N)=O)NC(=O)[C@H](Cc1ccccc1)NC(=O)[C@@H](NC(=O)[C@H](CCCCN)NC(=O)[C@H](CCCCN)NC(=O)[C@H](CC(C)C)NC(=O)[C@@H](NC(=O)[C@H](CC(N)=O)NC(=O)[C@H](CC(C)C)NC(=O)CN)[C@@H](C)O)C(C)C)C(=O)N[C@@H](CCCCN)C(=O)N[C@@H](CC(C)C)C(=O)N[C@H](C(=O)N[C@@H](CC(N)=O)C(=O)N[C@@H](CC(N)=O)C(=O)N[C@@H](Cc1c[nH]cn1)C(=O)N[C@H](C(=O)N[C@@H](CCC(N)=O)C(=O)O)C(C)C)[C@@H](C)CC; assay = broth microdilution; system = USA300 LAC; conditions = 37 °C; MIC = > 100 µM
SMILES = O=[N+]([O-])c1ccc(-n2ccnc2)c([N+](=O)[O-])c1; assay = microbial growth; system = ATCC25923; MIC = 125 µg/mL
SMILES = CC(C)C[C@H](NC(=O)CN)C(=O)N[C@@H](C)C(=O)N[C@@H](CC(=O)O)C(=O)N[C@@H](Cc1ccccc1)C(=O)N[C@@H](CC(C)C)C(=O)N[C@@H](CC(N)=O)C(=O)N[C@@H](CCCCN)C(=O)N[C@@H](C)C(=O)N[C@H](C(=O)NCC(=O)N[C@@H](CCCCN)C(=O)N[C@H](C(=O)N[C@H](C(=O)N[C@@H](CC(=O)O)C(=O)N[C@@H](Cc1ccccc1)C(=O)N[C@H](C(=O)N[C@@H](CCCCN)C(=O)N[C@@H](CO)C(N)=O)C(C)C)C(C)C)C(C)C)C(C)C; assay = broth microdilution; system = USA300 LAC; conditions = 37 °C; MIC = > 100 µM
SMILES = CC[C@H](C)[C@H](NC(=O)[C@H](CO)NC(=O)[C@@H](NC(=O)[C@H](C)NC(=O)[C@H](CCC(N)=O)NC(=O)CNC(=O)[C@@H](NC(=O)[C@@H](NC(=O)CNC(=O)[C@@H](NC(=O)[C@H](C)NC(=O)[C@@H]1CCCN1C(=O)CNC(=O)[C@H](C)NC(=O)[C@H](CCCCN)NC(=O)[C@@H](NC(=O)[C@@H](NC(=O)CNC(=O)[C@H](CC(=O)O)NC(=O)[C@H](CCCNC(=N)N)NC(=O)[C@@H](NC(=O)[C@H](CCCCN)NC(=O)[C@H](CCCNC(=N)N)NC(=O)CNC(=O)[C@@H](NC(=O)[C@H](CCCCN)NC(=O)[C@H](CCC(=O)O)NC(=O)[C@@H](NC(=O)[C@H](CCCCN)NC(=O)[C@H](CCCCN)NC(=O)[C@H](CC(C)C)NC(=O)[C@H](Cc1ccccc1)NC(=O)[C@H](CCCCN)NC(=O)[C@H](Cc1c[nH]c2ccccc12)NC(=O)[C@@H](N)CCCNC(=N)N)[C@@H](C)CC)C(C)C)C(C)C)C(C)C)[C@@H](C)CC)C(C)C)C(C)C)C(C)C)[C@@H](C)O)C(=O)N[C@@H](Cc1ccc(O)cc1)C(=O)N[C@@H](CCCCN)C(N)=O; assay = broth microdilution; system = ATCC 29213; conditions = 20 h, 37 °C; MIC = > 100 µg/mL
SMILES = CC[C@H](C)[C@H](NC(=O)[C@H](C)NC(=O)[C@@H](NC(=O)[C@H](C)NC(=O)CNC(=O)[C@H](CCSC)NC(=O)[C@H](CCC(N)=O)NC(=O)[C@H](CC(C)C)NC(=O)[C@H](CO)NC(=O)[C@@H](N)Cc1ccc(O)cc1)[C@@H](C)O)C(=O)N[C@@H](CCCCN)C(=O)N[C@@H](CCC(N)=O)C(=O)N[C@H](C(=O)N[C@@H](CCCCN)C(=O)N[C@@H](CCCCN)C(=O)N[C@@H](CC(C)C)C(=O)N[C@@H](Cc1ccccc1)C(=O)N[C@@H](CCCCN)C(=O)N[C@@H](CCCCN)C(=O)N[C@@H](CCCCN)C(=O)NCC(=O)NCC(N)=O)C(C)C; assay = broth microdilution; system = ATCC 25923; conditions = 24 h, 37 °C; MIC = 78 µM
SMILES = N=C(N)NCCC[C@H](NC(=O)[C@H](Cc1c[nH]cn1)NC(=O)[C@@H]1CCCN1C(=O)[C@H](CS)NC(=O)[C@@H]1CCCN1)C(=O)N[C@@H](CS)C(=O)O; assay = broth microdilution; system = MTCC 96; conditions = 37 °C; MIC = 125 µg/mL
SMILES = CC[C@H](C)[C@H](NC(=O)CNC(=O)[C@H](CCCNC(=N)N)NC(=O)[C@H](Cc1ccccc1)NC(=O)[C@@H](NC(=O)[C@H](Cc1c[nH]cn1)NC(=O)[C@H](Cc1c[nH]cn1)NC(=O)[C@H](Cc1ccccc1)NC(=O)[C@@H](N)Cc1ccccc1)[C@@H](C)CC)C(=O)N[C@H](C(=O)N[C@@H](Cc1c[nH]cn1)C(=O)N[C@H](C(=O)NCC(=O)N[C@@H](CCCCN)C(=O)N[C@H](C(=O)N[C@H](C(=O)N[C@@H](Cc1c[nH]cn1)C(=O)N[C@@H](CCCNC(=N)N)C(=O)N[C@@H](CC(C)C)C(=O)N[C@H](C(=O)N[C@H](C(=O)NCC(N)=O)[C@@H](C)O)C(C)C)[C@@H](C)CC)[C@@H](C)O)C(C)C)C(C)C; assay = broth microdilution; system = MRSA clinical isolate, brain heart infusion; conditions = 18 h, 37 °C; MIC = 3.1 µg/mL
SMILES = CC(C)C[C@H](NC(=O)[C@H](C)NC(=O)CNC(=O)[C@H](CC(C)C)NC(=O)[C@H](CC(C)C)NC(=O)[C@H](CCCCN)NC(=O)[C@H](CCCCN)NC(=O)[C@H](CC(C)C)NC(=O)[C@H](CC(C)C)NC(=O)[C@H](CCCCN)NC(=O)[C@H](CC(C)C)NC(=O)[C@H](CC(C)C)NC(=O)[C@@H](N)CCCCN)C(=O)NCC(N)=O; system = ATCC 43300, CAMHB; conditions = 18 h, 37 °C; MIC = 3 µM
SMILES = CSCC[C@H](NC(=O)[C@H](CC(N)=O)NC(=O)[C@@H]1CCCN1C(=O)[C@@H]1CCCN1C(=O)[C@H](CCCNC(=N)N)NC(=O)[C@@H]1CCCN1C(=O)[C@H](CCCNC(=N)N)NC(=O)[C@@H]1CCCN1C(=O)[C@H](CCCNC(=N)N)NC(=O)[C@H](Cc1ccc(O)cc1)NC(=O)[C@H](CC(=O)O)NC(=O)[C@@H]1CCCN1C(=O)[C@H](CCCCN)NC(=O)[C@H](CC(=O)O)NC(=O)[C@@H](N)C(C)C)C(=O)O; assay = broth microdilution; system = USA300 LAC; conditions = 37 °C; MIC = > 100 µM
SMILES = FC(F)(F)c1ccc(Nc2cc(C(F)(F)F)nc3cc(C(F)(F)F)ccc23)nc1; MIC = 0.125 to 0.25 µg/mL
SMILES = CC[C@H](C)[C@H](NC(=O)[C@H](CC(=O)O)NC(=O)[C@H](CC(C)C)NC(=O)[C@H](CC(C)C)NC(=O)[C@@H](N)CCCCN)C(=O)N[C@H](C(=O)N[C@@H](CCCCN)C(=O)N[C@@H](CCCCN)C(=O)N[C@H](C(=O)N[C@H](C(=O)NCC(=O)N[C@@H](C)C(=O)N[C@@H](CC(C)C)C(=O)NCC(N)=O)C(C)C)C(C)C)C(C)C; system = SH1000 GFP-expressing, nutrient broth; conditions = 20 h, 37 °C; MIC = > 100 µM
SMILES = CC(C)(C)c1cccc(C(C)(C)C)c1Oc1ccc([N+](=O)[O-])cc1[N+](=O)[O-]; assay = microbial growth; system = ATCC25923; MIC = > 500 µg/mL
SMILES = CC(C)C[C@H](NC(=O)[C@H](C)NC(=O)[C@H](CCCCN)NC(=O)[C@H](CC(C)C)NC(=O)[C@H](CC(C)C)NC(=O)[C@H](CCCCN)NC(=O)[C@H](CCCCN)NC(=O)[C@H](CC(C)C)NC(=O)[C@H](CC(C)C)NC(=O)[C@H](CCCCN)NC(=O)[C@H](CC(C)C)NC(=O)[C@H](CC(C)C)NC(=O)[C@@H](N)CCCCN)C(=O)NCC(N)=O; system = SH1000 GFP-expressing, nutrient broth; conditions = 20 h, 37 °C; MIC = 33 µM
SMILES = CC(C)[C@H](NC(=O)[C@H](CO)NC(=O)[C@H](Cc1c[nH]cn1)NC(=O)[C@H](Cc1ccccc1)NC(=O)[C@H](C)NC(=O)[C@H](CCCCN)NC(=O)CNC(=O)[C@H](Cc1ccccc1)NC(=O)CN)C(=O)N[C@@H](CO)C(=O)N[C@@H](CC(N)=O)C(=O)N[C@@H](Cc1ccccc1)C(=O)N[C@@H](C)C(=O)N[C@@H](CCCCN)C(=O)N[C@@H](CCCCN)C(=O)N[C@@H](Cc1c[nH]cn1)C(=O)N[C@@H](CCCCN)C(=O)N[C@H](C(=O)N[C@@H](C)C(N)=O)[C@@H](C)O; assay = broth microdilution; system = USA300 LAC; conditions = 37 °C; MIC = > 100 µM
SMILES = CC[C@H](C)[C@H](NC(=O)[C@H](CCCCN)NC(=O)[C@H](CC(C)C)NC(=O)[C@H](CC(C)C)NC(=O)[C@@H](N)CCCCN)C(=O)N[C@H](C(=O)N[C@@H](CCCCN)C(=O)N[C@@H](CCCCN)C(=O)N[C@H](C(=O)N[C@H](C(=O)NCC(=O)N[C@@H](C)C(=O)N[C@@H](CC(C)C)C(=O)NCC(N)=O)C(C)C)C(C)C)C(C)C; system = SH1000 GFP-expressing, nutrient broth; conditions = 20 h, 37 °C; MIC = 100 µM
SMILES = CN[C@H](CC(C)C)C(=O)N[C@H]1C(=O)N[C@@H](CC(N)=O)C(=O)N[C@H]2C(=O)N[C@H]3C(=O)N[C@H](C(=O)N[C@H](C(=O)O)c4cc(O)cc(O)c4-c4cc3ccc4O)[C@H](O)c3ccc(c(Cl)c3)Oc3cc2cc(c3O[C@@H]2O[C@H](CO)[C@@H](O)[C@H](O)[C@H]2O[C@H]2C[C@](C)(N)[C@H](O)[C@H](C)O2)Oc2ccc(cc2Cl)[C@H]1O; system = ATCC 29213 MSSA; MIC = 1 µg/mL

Some of these lines once more:
SMILES = O=[N+]([O-])c1ccc(-n2ccnc2)c([N+](=O)[O-])c1; assay = microbial growth; system = ATCC25923; MIC = 125 µg/mL
SMILES = CC(C)[C@H](NC(=O)[C@H](CO)NC(=O)[C@H](Cc1c[nH]cn1)NC(=O)[C@H](Cc1ccccc1)NC(=O)[C@H](C)NC(=O)[C@H](CCCCN)NC(=O)CNC(=O)[C@H](Cc1ccccc1)NC(=O)CN)C(=O)N[C@@H](CO)C(=O)N[C@@H](CC(N)=O)C(=O)N[C@@H](Cc1ccccc1)C(=O)N[C@@H](C)C(=O)N[C@@H](CCCCN)C(=O)N[C@@H](CCCCN)C(=O)N[C@@H](Cc1c[nH]cn1)C(=O)N[C@@H](CCCCN)C(=O)N[C@H](C(=O)N[C@@H](C)C(N)=O)[C@@H](C)O; assay = broth microdilution; system = USA300 LAC; conditions = 37 °C; MIC = > 100 µM
